Measurements collected from several papers.
Numbered parts are unrelated; each lists some results of a single study.

Series 1
Target: Prothrombin, mature alpha-thrombin (F2, Homo sapiens, UniProt P00734)
Technique: aptamer microarray, sandwich
Molecule type: DNA with 2'F-ANA
Matrix: in vitro
Tested at: 200 nM
Notes: whole 15-mer aptamer, many near background
With: Cy3 exosite-II aptamer, 400 nM
Reading: higher = stronger binding
Quantity: mean fluorescence intensity
Strand: GGTTGGTGTGGTTGG
Modification = 2'F-ANA at 1 6 10 12 13; value = 82.1 a.u.
Modification = 2'F-ANA at 1 2 3 4 7 10 13; value = 53.5 a.u.
Modification = 2'F-ANA at 1 3 6 7 11 13 14 15; value = 78.4 a.u.
Modification = 2'F-ANA at 3 10 13 14; value = 429 a.u.
Modification = 2'F-ANA at 1 4 5 6 8 10 13 14; value = 45.6 a.u.
Modification = 2'F-ANA at 1 6 8 9 13 14; value = 53.3 a.u.
Modification = 2'F-ANA at 2 7 9 12 14 15; value = 181 a.u.
Modification = 2'F-ANA at 2 3 7 8 9 10 13; value = 360 a.u.
Modification = 2'F-ANA at 1 2 4 7 9 11 14 15; value = 50.3 a.u.
Modification = 2'F-ANA at 1 2 3 7 9 10 14 15; value = 52.7 a.u.
Modification = 2'F-ANA at 6 7 8 9 12; value = 940 a.u.
Modification = 2'F-ANA at 1 4 5 6 7 12 15; value = 113 a.u.
Modification = 2'F-ANA at 1 3 6 8 10 11 13 14; value = 60 a.u.
Modification = 2'F-ANA at 1 2 3 4 6 7 12 13 15; value = 235 a.u.
Modification = 2'F-ANA at 1 2 4 11; value = 98.6 a.u.
Modification = 2'F-ANA at 2 4 6 10 12 14; value = 62.1 a.u.
Modification = 2'F-ANA at 1 2 5 6 7 8 9 10 15; value = 51.4 a.u.
Modification = 2'F-ANA at 5 6 7 8 9 11 15; value = 62.1 a.u.
Modification = 2'F-ANA at 2 10 12 13; value = 179 a.u.
Modification = 2'F-ANA at 2 3 4 5 12 13 15; value = 128 a.u.
Modification = 2'F-ANA at 3 6 9 12; value = 1260 a.u.
Modification = 2'F-ANA at 1 3 6 9 10; value = 74.8 a.u.
Modification = 2'F-ANA at 3 4 6 10 12 13 14 15; value = 171 a.u.

Series 2
Target: RNA binding protein fox-1 homolog 2, RRM domain, GST-SBP tag (RBFOX2, Homo sapiens, UniProt O43251-10, residues 100-194)
Technique: RNA Bind-n-Seq
Molecule type: RNA
Matrix: in vitro
Tested at: 365 nM
Notes: natural RNA segment, single round, ends assumed
Relative to: no-protein control
Reading: higher = stronger binding
Quantity: RBNS enrichment (R)
Residues (chain): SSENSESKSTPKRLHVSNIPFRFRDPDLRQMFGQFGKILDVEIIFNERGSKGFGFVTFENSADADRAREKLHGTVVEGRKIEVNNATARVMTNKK
Strand = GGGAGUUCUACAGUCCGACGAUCUGCCCGUUCCAUGCCAAGCAUUAGGCUGGGUGCUUUACAUAAGUUUAAUCCUCACAAUAGCCCUGUAAGGUUGCACCUAUUAUCUCCACUUUGACCACGAAGAAACGGAGUGGAAUUCUCGGGUGCCAA; value = 1.21
Strand = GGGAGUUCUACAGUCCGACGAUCUUUCCCACUUUCUGGGUGGCUUUUUGGGUCCACCCAGCCAGGAUGCUGCAGGCCAAGCUGGGUGUGGUAUUUAGGGCAGCUCAGCAGGGGGAACUUGUCCCCAUGGUCAGUGGAAUUCUCGGGUGCCAA; value = 0.45
Strand = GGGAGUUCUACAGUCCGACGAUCUCACUUUGCCUUCCUGAGUUGGCCCCACUCCACUUGGGGGUCUGCAUUGGAUUGUUAGGGAUAGGCAGCAGGGCUGAGGCAAGGUAGGCCAACUGCACCCCUGUCGCCUGUGGAAUUCUCGGGUGCCAA; value = 0.338
Strand = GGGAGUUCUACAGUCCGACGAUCGUCAGCACUUAACACAGGAAAAAACUAGGUGUUGUUUUGUUUUGUUAUUUUGGACAACAUAAAAUUCAGGAAUGUUUUAUUUAGCCUUGGUUUCUAGAAGGAAGGGAAAUUGGAAUUCUCGGGUGCCAA; value = 1.08
Strand = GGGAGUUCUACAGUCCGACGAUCCCAUUCCCUCCUGCUGCGGUUUCUCUUGGCCUGUCCUCACUGGAAAAACAGUCUCCAUCUCCUCAAAAUAGUUGCUGACUCCCUGCACCCAAGGGGCCUCUCCAUGCCUUUGGAAUUCUCGGGUGCCAA; value = 0.554
Strand = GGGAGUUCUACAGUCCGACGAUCUUUAAUAAAAAUUGUUAUGAACUAUAGUAUUUUAGAUGAUGAGUGACUUAUUUUAAUUCCACUUUAACAUUUUACUGUGCUGUUAACUUGGAAGACCUGUUUGAAAUUAGUGGAAUUCUCGGGUGCCAA; value = 0.801
Strand = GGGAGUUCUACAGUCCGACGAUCCUUCCUCUGAGAGGGCCAAAUGCUGUGAGUCUGAAGUAUGUGCCUGGUGUGAAAUGAUCUAUGGCCUGUUUCUUACACAGGAAGCCCCCUGAACCUCCUGUACAUGUGUUUGGAAUUCUCGGGUGCCAA; value = 0.725
Strand = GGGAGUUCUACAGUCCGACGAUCAUUGAAAAAAAAAAAAAAACCUACACGAGCACCGUGAUUUCAAGUAAUAAACAGAAAAUGAAACACACAUUGACUCCCGCCUGCUCGCCUAGUGGGGGGAUCUGGCCUUGUGGAAUUCUCGGGUGCCAA; value = 0.672
Strand = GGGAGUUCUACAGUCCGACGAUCCAGCUUUAUGUGCAUAGUGCUCAUCUGUAGCUAGGGCACACCAAAGGUCAUAUUUUAACUCUUUAUAGGAAAUGCCUUUAACACAAGUGACUGUAGGUGACUUUCUUGUGUGGAAUUCUCGGGUGCCAA; value = 0.56
Strand = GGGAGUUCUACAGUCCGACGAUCGCAGCAUAUUGGCUUGGGGGCAAGCACUAGAACCGACACAAAAGGGUUGAUGAGGGCCCUGGCACCACUGUCACCACCCACCCCUUCCUACCAGCUGCUGCUAGCCCUCUUGGAAUUCUCGGGUGCCAA; value = 0.929
Strand = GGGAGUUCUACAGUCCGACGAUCUCUCUAGUAGUUAUUUUAAUCUUUAUUUUAACCUGGAUUGCAAAUGUAUGGGGUAUGAGGAGAUAAUGAAAGAAAAGUGGUCCUCAUGCUGGAUAUGUGACUGUUUUGUUUGGAAUUCUCGGGUGCCAA; value = 1.87
Strand = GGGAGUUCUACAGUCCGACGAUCCUUUGGAUCUAGACCUGGGGCCAGAUGUAUCUAGUGGAUAGACUUGCAGGGCCAUGCAGGCCGGACUCGUUGCCUUAAUUCAAGAACCUGUGUCUAUGUGUAUGUACACAUGGAAUUCUCGGGUGCCAA; value = 0.286

Series 3
Target: Histone acetyltransferase KAT6A, winged helix 2, GST fusion (KAT6A, Homo sapiens, UniProt Q92794, residues 85-181)
Technique: protein binding microarray
Molecule type: double-stranded DNA, one strand shown
Matrix: in vitro
Tested at: not given
Notes: 8-mer, flanks averaged, mean of 2 arrays, mostly near background
Relative to: not given
Reading: higher = stronger binding
Quantity: E-score
Construct (chain): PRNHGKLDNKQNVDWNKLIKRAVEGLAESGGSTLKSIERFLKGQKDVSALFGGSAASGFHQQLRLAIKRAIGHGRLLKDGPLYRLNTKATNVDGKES
Strand = GAACGACA; value = 0.0438
Strand = CTACTCTC; value = -0.0755
Strand = AGTTACGG; value = -0.0209
Strand = CTATAAGA; value = -0.121
Strand = AAGTACAG; value = -0.0695
Strand = CCTCCCAG; value = -0.00258
Strand = CCCCTCTA; value = -0.0886
Strand = CCTCGTTC; value = -0.0796
Strand = ATATAGAC; value = 0.0998
Strand = CCTTAGCC; value = 0.0386
Strand = AACAAAGG; value = -0.1
Strand = TAATATTA; value = 0.12
Strand = CTCGGAGC; value = 0.217
Strand = AATCTTGA; value = -0.0708
Strand = ATTACAGC; value = 0.0183
Strand = AACTAGGC; value = 0.013
Strand = ATTGGCGC; value = -0.0261
Strand = TATGCCGA; value = 0.0368
Strand = AACTCTTC; value = -0.0738
Strand = ATCATTTA; value = 0.104
Strand = CTATATTA; value = 0.0548
Strand = AGTGAGGA; value = -0.0346
Strand = CTATAGAA; value = -0.0558
Strand = ATGGACAC; value = 0.122
Strand = CCGATAGA; value = -0.129

Series 4
Target: Ras GTPase-activating protein-binding protein 1, full length (G3BP1, Homo sapiens, UniProt Q13283)
Sequence of UniProt Q13283 (whole entry, looked up): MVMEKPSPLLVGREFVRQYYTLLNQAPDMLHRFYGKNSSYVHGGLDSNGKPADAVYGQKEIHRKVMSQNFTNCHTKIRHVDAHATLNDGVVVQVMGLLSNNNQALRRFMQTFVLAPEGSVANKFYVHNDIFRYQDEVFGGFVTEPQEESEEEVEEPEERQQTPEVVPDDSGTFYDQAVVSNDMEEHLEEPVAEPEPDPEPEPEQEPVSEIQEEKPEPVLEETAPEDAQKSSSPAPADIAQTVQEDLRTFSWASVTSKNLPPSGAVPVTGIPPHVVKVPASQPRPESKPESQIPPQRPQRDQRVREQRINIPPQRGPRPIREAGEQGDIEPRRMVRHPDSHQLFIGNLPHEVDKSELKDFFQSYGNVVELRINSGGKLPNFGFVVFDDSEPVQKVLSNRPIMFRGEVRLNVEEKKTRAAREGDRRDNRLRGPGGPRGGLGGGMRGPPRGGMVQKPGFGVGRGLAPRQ
Technique: RNA Bind-n-Seq
Molecule type: RNA
Matrix: in vitro
Tested at: 200 nM
Notes: whole 134-nt RNA, ends assumed
With: 150 mM LiCl
Relative to: input library
Reading: higher = stronger binding
Quantity: log2 enrichment
Library: 7-deaza-guanosine replaces G
Strand = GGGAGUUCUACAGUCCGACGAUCAGUCCUGUGCUACACAUCGUAUGUACCGAAUCGGGGCCCCGGCCCCGGGGCCCCGGGGAAAGUAUUAUGUUACGCCGUUCGGAUCUGCACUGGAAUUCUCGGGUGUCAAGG; value = -1.24
Strand = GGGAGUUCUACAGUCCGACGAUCUGUGCUACACAUCGUAUGUACCGAAUCGGGGUUUUUGGGGAAAAAAAGGGGUUUUUUUGGGGAAAGUAUUAUGUUACGCCGUUCGGAUCUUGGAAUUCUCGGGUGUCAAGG; value = -0.144
Strand = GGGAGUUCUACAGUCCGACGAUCACCAUGCCGGUGGGCAUCUUUGGGAAGUGGGGCAAGGGGGGGAUAGGGAGGGGGGUAACACUUUGGGAACAGGUGGUCCCAGGUCGUUUCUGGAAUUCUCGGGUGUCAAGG; value = 0.441
Strand = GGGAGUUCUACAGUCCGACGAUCUGCAUUUCCUGAGCUGAAGAAGGACCCAGACAUGGUGAAGGACAUCAUUAAUGAAGAAGAGGUGCAGUUUCUCAAGACUCUCAGCAGAGGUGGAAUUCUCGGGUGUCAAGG; value = -1.48
Strand = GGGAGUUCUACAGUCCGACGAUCGCAGGAAGUAAAAACAAAUGGAAAUGCUUCGGAUAGUGGCAGGGGUGGGGGUUGCUAAGGAAAGGGUGGGAUGGGAGUGGGUAAAGAAUUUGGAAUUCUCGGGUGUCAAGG; value = 0.06
Strand = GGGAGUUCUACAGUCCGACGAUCCCUGUGCUACACAUCGUAUGUACCGAAUCGGGGCCCCCCGGCCCCCCGGGGCCCCCCGGGAAAGUAUUAUGUUACGCCGUUCGGAUCUGCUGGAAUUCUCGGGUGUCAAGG; value = 0.0305
Strand = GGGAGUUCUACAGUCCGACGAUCUCAAGUCCUGUGCUACACAUCGUAUGUACCGAAUCGGGGAAGGGGAAGGAAGGGGAAAGUAUUAUGUUACGCCGUUCGGAUCUGCACUUCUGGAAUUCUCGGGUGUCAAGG; value = -0.369
Strand = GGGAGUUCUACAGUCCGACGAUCUGGCCCUGGUGGCAUGCUGGGAGGAAGAGGUGGCCUCAUGGAUCGUGGUGGUCCCGGUGGAAUGUUCAGAGGUGGCCGUGGUGGAGACAGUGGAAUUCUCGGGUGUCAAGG; value = 0.295
Strand = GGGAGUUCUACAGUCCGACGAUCUGUCCCAGGGAACGCCGGUGCAGAUGUGCUUCUUGUGGGCUCAGAGGCCUUCGUGCUGCUGGACGGGCAGGAGCUGACGCCUCGCUGGACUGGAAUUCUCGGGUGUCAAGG; value = -2.18
Strand = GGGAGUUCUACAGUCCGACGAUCUCCUGUGCUACACAUCGUAUGUACCGAAUCAAACCCAAAUUUUUUUAAACCCCCCCAAAAAAGUAUUAUGUUACGCCGUUCGGAUCUGCAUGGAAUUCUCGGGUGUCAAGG; value = 1.44
Strand = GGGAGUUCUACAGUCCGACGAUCUCCUGUGCUACACAUCGUAUGUACCGAAUCGGGAAAAAAAGGAAAAAAAGGAAAAAAAGGAAAGUAUUAUGUUACGCCGUUCGGAUCUGCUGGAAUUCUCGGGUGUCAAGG; value = -0.298

Repeated from above (series 4):
Strand = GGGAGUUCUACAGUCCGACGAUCGCAGGAAGUAAAAACAAAUGGAAAUGCUUCGGAUAGUGGCAGGGGUGGGGGUUGCUAAGGAAAGGGUGGGAUGGGAGUGGGUAAAGAAUUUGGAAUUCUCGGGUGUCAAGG; value = 0.06
Strand = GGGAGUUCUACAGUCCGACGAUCCCUGUGCUACACAUCGUAUGUACCGAAUCGGGGCCCCCCGGCCCCCCGGGGCCCCCCGGGAAAGUAUUAUGUUACGCCGUUCGGAUCUGCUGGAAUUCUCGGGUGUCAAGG; value = 0.0305
Strand = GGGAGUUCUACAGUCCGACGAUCUCAAGUCCUGUGCUACACAUCGUAUGUACCGAAUCGGGGAAGGGGAAGGAAGGGGAAAGUAUUAUGUUACGCCGUUCGGAUCUGCACUUCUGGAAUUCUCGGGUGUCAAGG; value = -0.369
Strand = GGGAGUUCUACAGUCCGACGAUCUGGCCCUGGUGGCAUGCUGGGAGGAAGAGGUGGCCUCAUGGAUCGUGGUGGUCCCGGUGGAAUGUUCAGAGGUGGCCGUGGUGGAGACAGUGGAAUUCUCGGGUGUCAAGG; value = 0.295
Strand = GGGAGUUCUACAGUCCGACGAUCUGUCCCAGGGAACGCCGGUGCAGAUGUGCUUCUUGUGGGCUCAGAGGCCUUCGUGCUGCUGGACGGGCAGGAGCUGACGCCUCGCUGGACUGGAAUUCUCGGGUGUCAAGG; value = -2.18
